Measurements gathered from unrelated publications.
Every numbered part comes from another study and shows a few of its results, in no order. Substitutions count along the parent as printed.

Series 1 — target: CCNB2, cyclin fold, Cln2 fusion (human); method: yeast growth competition, sequencing; sample: yeast; setting: weak parent motif; reference: not given; direction: higher = stronger binding
Starting sequence: RB1 docking peptide (human); PKPLKKLRFDIEG; partner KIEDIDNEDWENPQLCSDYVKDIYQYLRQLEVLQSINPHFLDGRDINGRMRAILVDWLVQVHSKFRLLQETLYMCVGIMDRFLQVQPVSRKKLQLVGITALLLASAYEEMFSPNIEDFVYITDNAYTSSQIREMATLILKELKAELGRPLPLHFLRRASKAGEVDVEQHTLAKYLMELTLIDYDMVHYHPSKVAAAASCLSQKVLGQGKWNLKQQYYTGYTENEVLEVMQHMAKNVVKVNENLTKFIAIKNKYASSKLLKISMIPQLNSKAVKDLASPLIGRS
Variant	normalised enrichment score
R8P	0.00758
D10S	-0.321
D10H	0.629
R8V	0.782
F9V	0.118
P1K	0.958
F9N	0.877
G13H	0.728
K6C	0.36
P3L	0.603
L4T	0.231
E12Q	0.134
P1N	0.0423
L7Q	-0.143
G13T	-0.184
K2D	-0.3
P3R	0.667
L7V	0.268
K2E	0.0284
K2N	0.654
L7C	0.427

Series 2 — method: protein binding microarray; form: double-stranded DNA, one strand shown; sample: in vitro; concentration: not given; reference: not given; direction: higher = stronger binding
Target: Histone acetyltransferase KAT6A, winged helix 1, GST fusion (KAT6A, Homo sapiens, UniProt Q92794, residues 1-85)
Setting: 8-mer, flanks averaged, mean of 2 arrays, mostly near background
Construct (chain): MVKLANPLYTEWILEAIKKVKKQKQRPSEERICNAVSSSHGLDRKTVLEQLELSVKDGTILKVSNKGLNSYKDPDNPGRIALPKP
Oligonucleotide	E-score
TTCAAAAA	-0.239
CAATCGGA	-0.0937
GATGAGCA	-0.301
AATAGGAT	0.0226
AGTTTCTG	-0.104
CTGGGCTC	-0.293
ACCCCCTG	-0.0251
ACCAGGGC	0.0307
GACCAGGC	-0.112
TCTTCGAA	0.018
TACGCATA	0.207
CTGTCCCA	-0.179
ACGGTCAT	0.0649
ACTAGCAG	-0.191
ACTAAGTC	-0.0801
GCAAGCAC	-0.0168
AACCAGAG	-0.226
CGCCGGCG	0.486
ATAGCGAC	0.129
AGACGCTA	0.16
GGATTTGA	-0.0633
ATTGCATA	-0.107
ACAATTCA	-0.167
GGTCACGA	-0.134
CGTTGCAA	-0.154

Series 3 — method: RNA Bind-n-Seq; form: RNA; sample: in vitro; concentration: 1 µM; setting: whole 134-nt RNA, ends assumed; with: 150 mM KCl; reference: input library; direction: higher = stronger binding
Target: Ras GTPase-activating protein-binding protein 1, RRM domain (G3BP1, Homo sapiens, UniProt Q13283)
UniProt Q13283, sequence (whole entry, looked up): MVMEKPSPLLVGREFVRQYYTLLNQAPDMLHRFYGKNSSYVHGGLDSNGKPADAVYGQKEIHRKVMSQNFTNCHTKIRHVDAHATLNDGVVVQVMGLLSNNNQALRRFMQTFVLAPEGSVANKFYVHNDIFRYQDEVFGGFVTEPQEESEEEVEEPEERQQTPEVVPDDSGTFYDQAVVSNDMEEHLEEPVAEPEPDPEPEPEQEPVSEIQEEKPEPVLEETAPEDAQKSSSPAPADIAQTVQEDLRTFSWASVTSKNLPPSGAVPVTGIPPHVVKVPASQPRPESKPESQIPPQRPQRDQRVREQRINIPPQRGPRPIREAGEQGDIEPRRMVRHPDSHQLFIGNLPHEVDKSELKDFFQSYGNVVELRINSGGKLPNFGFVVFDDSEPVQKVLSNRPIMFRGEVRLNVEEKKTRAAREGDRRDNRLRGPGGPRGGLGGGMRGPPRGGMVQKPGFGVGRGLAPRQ
Oligonucleotide	log2 enrichment
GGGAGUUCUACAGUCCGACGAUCGCAGGAAGUAAAAACAAAUGGAAAUGCUUCGGAUAGUGGCAGGGGUGGGGGUUGCUAAGGAAAGGGUGGGAUGGGAGUGGGUAAAUAGUUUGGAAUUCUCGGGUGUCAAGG	0.844
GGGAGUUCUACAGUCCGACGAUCUGGCACUGGUGGCAUGCGGGGAGGAAGAGGUGGCCUCAUGGAUCGUGGUGGUCCCGGUGGAAUGUUCAGAGGUGGCCGUGGUGGAGACAGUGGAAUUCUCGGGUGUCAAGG	0.389
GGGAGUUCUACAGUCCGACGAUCUCCUCAAGUCCUGUGCUACACAUCGUAUGUACCGAAUCGGCGGGGCGGCGGAAAGUAUUAUGUUACGCCGUUCGGAUCUGCACUUCCAGCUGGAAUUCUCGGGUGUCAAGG	-0.153
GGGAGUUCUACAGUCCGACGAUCACCAUGCAGGUGGGCAUCUUUGGGAAGUGGGGCACGGGGGGGAUAGGGAGGGGGGUAACACUUUGGGAACAGGUGGUCCCAGGUCGUUUCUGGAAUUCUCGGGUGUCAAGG	-0.491
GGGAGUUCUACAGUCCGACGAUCUGCAUGUGCACUGAUAGGCCAAGGCCAGCUGAACCAGGCCAUGAAAAUCCUACAAAAAGCUGAAGGUUGGAAGUUUGUUAAACUUAUCUGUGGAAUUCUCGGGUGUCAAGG	-0.248
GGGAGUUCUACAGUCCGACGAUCGCAGGAAGUAAGAACAAAUGGAAAUGCUUCGGAUAGUGGCAGGGGUGGGGGUUGCUAAGGAAAGGGUGGGAUGGGAGUGGGUAAAGAGUUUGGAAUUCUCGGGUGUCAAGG	0.835
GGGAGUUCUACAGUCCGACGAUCAGUCCUGUGCUACACAUCGUAUGUACCGAAUCAAAUUUUUAAAUUUUUAAACCCAAAAAAGUAUUAUGUUACGCCGUUCGGAUCUGCACUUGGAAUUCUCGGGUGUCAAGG	-1.32
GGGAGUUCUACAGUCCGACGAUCCCUGUGCUACACAUCGUAUGUACCGAAUCGGUUUUUUUGGUUUUUUUGGGGUUUUUUUGGAAAGUAUUAUGUUACGCCGUUCGGAUCUGCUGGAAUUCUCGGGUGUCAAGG	-0.344
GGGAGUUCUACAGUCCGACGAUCUAACUUUAGAGGAGGAUCUGAUGGAUAUGGCAGUGGACGUGGAUUGGGGGAUGGCUAUAAUGGGUAUGGAGGAGGACCUGGAGGUGGCAAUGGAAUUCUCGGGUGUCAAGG	-0.478
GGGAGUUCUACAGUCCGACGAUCCCUCAAGUCCUGUGCUACACAUCGUAUGUACCGAAUCGGGUGGGGUGGUGGGAAAGUAUUAUGUUACGCCGUUCGGAUCUGCACUUCCAGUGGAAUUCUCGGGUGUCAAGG	0.134

Series 4 — method: RNA Bind-n-Seq; form: RNA; sample: in vitro; concentration: not given; reference: input RNA pool; direction: higher = stronger binding
Target: RING finger protein unkempt homolog, zinc fingers 1-6, GST-SBP tag (UNK, Homo sapiens, UniProt Q9C0B0, residues 30-357)
Setting: RNA with constant flanks, human and mouse sites, ends assumed
Residues (chain): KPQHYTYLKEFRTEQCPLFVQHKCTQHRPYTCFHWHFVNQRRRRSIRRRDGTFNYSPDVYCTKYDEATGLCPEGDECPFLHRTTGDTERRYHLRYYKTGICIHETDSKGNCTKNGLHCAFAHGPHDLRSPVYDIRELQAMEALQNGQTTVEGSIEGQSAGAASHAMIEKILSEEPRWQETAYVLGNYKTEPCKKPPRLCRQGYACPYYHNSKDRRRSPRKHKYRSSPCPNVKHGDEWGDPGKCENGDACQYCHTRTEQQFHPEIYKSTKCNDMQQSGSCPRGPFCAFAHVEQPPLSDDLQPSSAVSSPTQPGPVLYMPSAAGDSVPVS
Oligonucleotide	bound/input enrichment [ratio]
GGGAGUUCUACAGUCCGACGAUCUUUCUCCGUUGCAUCUGGUCAUCUCUACGAAAGAUUUCUUCGCAUAAUGAUGCUAUCCGUGCUGAAGAAUACCAAGACUCCUGUGAAAUUCUGGUUCUUGAAGAAUUACUUGUCCCCCACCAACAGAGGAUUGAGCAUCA	0.267
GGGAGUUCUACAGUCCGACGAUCGAUGUCACUCAAGAGCAGCUGGGUGGUGCCAAGACCCACACCACUGUGUCAGGUGUGGCCCAUAGAGCUUUCGACAAUGAUGUUGAUGCUCUGUGUAACCUGCGUGAAUUCUUCAAUUUCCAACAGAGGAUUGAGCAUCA	0.078
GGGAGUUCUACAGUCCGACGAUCUGGUGCUUUUUCCACCUUGUAUUGUUGUAACUGUAAGCUCCUAGGGGGCAGCAAUUUGGUCUUAGGCGUGUACCCUGUUUAGUGCCUGGCAAUGCCAUGUUUAUAUCAAGGUCUUAAUAUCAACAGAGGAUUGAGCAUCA	2
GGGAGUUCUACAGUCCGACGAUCUCACUGCAGUCUUCCCUGGGUCUUCCCUUCAAAUGCCCAUGGCGUUUAUCCUUCUCCCUCUCUAGAAAUGUACUCGACUGUUAUAACGAGGGAGUGUGAUUGGGUCUCUGUAGGUCUCUGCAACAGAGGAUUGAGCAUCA	0.355
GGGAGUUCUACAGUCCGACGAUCCAGAGUAUAGCAAUUGUUUUUGGUCCCACUCUAUUAAAACCAGAAAAAGAGACUGGUAAUAUAGCAGUUCAUACUGUGUACCAGAAUCAGAUUGUAGAAUUAAUUCUUCUGGAACUGAGUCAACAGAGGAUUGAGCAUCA	0.453
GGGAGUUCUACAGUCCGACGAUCAAAUAUGUUGUACAUUUGAUUAAAAUUAUUUAGAUAAAUAUUACUAUGUUGACUUUUAAAUAGCUUUAUCCUAUUUUUCAUUCAUUUUGCAAAUAUUUGUUGUGUGUAGUUUCUUAACGUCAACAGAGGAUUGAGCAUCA	6.76
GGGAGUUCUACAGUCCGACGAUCAGCGGUUAGAUAAGGUAGUAGAUUCCAUGGAUGCAUUAGAUAAAGUUGUCCAGGAAAGAGAAGAUGCCCUAAGGCUUCUUCAGACUGGUCAAGAAAGAGCUAGACCUGGUGCUUGGAGAACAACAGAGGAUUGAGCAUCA	3.01
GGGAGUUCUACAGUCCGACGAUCUUAUGCUUUGGACACACUAUAUAAUAUAAUAUCUAAUGAAGAAGAAGAAGAAGUAGAAGAAAAUUCCACAAGACAGAGUGAAGAUUUGGGAAGCCAAUUUACAGAAAUUUUCAUUAAGCACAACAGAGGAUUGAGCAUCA	0.678
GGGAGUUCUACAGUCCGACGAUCGAUUUAAAACAUAGAGACCUUGAAUACAGGUCUUGCCAUCGUUUCCUUCAUAAGCCCAGCAUAGAAAAGAUGUAUCAGUUUAAUGCUGUGUGUAGACCUGGAAAUUUUUGUCAACAGGACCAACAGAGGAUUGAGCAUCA	0.677
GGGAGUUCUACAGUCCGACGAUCGAACGAGGACGCCUGAAGGAAGAGCUGGAAGAGGCUCGGGACAUAGCCCGGCGGCGCUCUUUAGGGAAUAUCAAGUUUAUUGGAGAGUUGUUCAAACUGAAGAUGUUAACAGAGGCAAUACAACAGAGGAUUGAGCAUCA	11.1
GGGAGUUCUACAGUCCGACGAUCGCAGGAGAUGAAAUUCUUCCUACCUUACUAUAUAUUUGGACUCAACAUAGACUUAAUGAUUCUUUAAAAGAAGUAAUUAUUGAACUAAUUCAACUGCAGAUUUAUAUCCAUCAUCCACAACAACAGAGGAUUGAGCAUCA	0.933

Repeated from above (series 1):
Variant	normalised enrichment score
R8V	0.782
F9V	0.118
P1K	0.958
F9N	0.877
G13H	0.728
